# Experimental data pooled from the literature.
# Each line is one published result; not all experiments were run side by side. ± marks the error that the study gave.
Compound,cell line,assay,setting,scale,endpoint,result
CCCCOc1cc(C(=O)NCCN(CC)CC)c2ccccc2n1,rat DRG neurons,"ion current, inhibitor","20 and 50 µM, overnight, added: veratridine 30 µM",,sodium current,inhibited
CCN(N=O)C(C)C,HepaRG 2D,cell viability,"concentration not given, 24 h",baseline: vehicle,ATP level,76.5%
CON=C(N)c1ccc(-c2ccc(-c3ccc(C(N)=NOC)cc3)o2)cc1,KLE,cytotoxicity,"72 h, without α-naphthoflavone",,IC50,54900 ± 1000 nM
CC[C@H](C)[C@H](NC(=O)[C@H](CC(=O)O)NC(=O)[C@H](Cc1ccccc1)NC(=O)[C@H](CC(C)C)NC(=O)CN)C(=O)N[C@H](C(=O)N[C@@H](CCCCN)C(=O)N[C@@H](CCCCN)C(=O)N[C@H](C(=O)N[C@H](C(=O)NCC(=O)N[C@@H](CC(C)C)C(=O)N[C@@H](CC(C)C)C(=O)N[C@@H](CCCCN)C(N)=O)C(C)C)C(C)C)C(C)C,human erythrocytes,,"1 h, 37 °C, hemolysis ≤5%",,minimal hemolytic concentration,32 µM
Cn1c(N)nc2c3cccnc3ccc21,rat primary midbrain neurons,"selective dopaminergic neurotoxicity, refers to: TH+ over MAP2+ neurons",24 h,,threshold concentration,5 µM
COc1cc(CN2CC3(CCN(S(=O)(=O)c4cn(C)cn4)CC3)c3c(n(C)c4cc(OC)ccc34)[C@H]2CO)cc(OC)c1,"HEp-2, uninfected",,original sample,,CC50,> 100000 nM
C#CC[C@H](NCCC)C(=O)N[C@@H](Cc1c[nH]c2ccccc12)C(=O)NCc1ccc(-c2ccccc2)cc1,Vero,"cell morphology, microscopy",5 (unit not given),,minimum cytotoxic concentration,> 100 µM
Clc1ccc(-c2cc(Cl)c(Cl)c(Cl)c2)cc1Cl,primary hepatocytes,refers to: Cyp1a1 mRNA,,baseline: mouse over human,potency ratio,~16 fold
Nc1nc2c(ncn2COCCOP(=O)(NC(Cc2ccccc2)C(=O)OCc2ccccc2)Oc2ccccc2)c(=O)[nH]1 (centres unmarked),HEL,altered cell morphology,,,minimal cytotoxic concentration,> 50 µM
CC[C@H](C)[C@H](NC(=O)[C@H](CCCCN)NC(=O)[C@H](CCC(=O)O)NC(=O)[C@H](CCCCN)NC(=O)[C@H](CO)NC(=O)[C@H](CCCCN)NC(=O)[C@H](CCCNC(=N)N)NC(=O)[C@H](Cc1ccccc1)NC(=O)[C@H](Cc1ccccc1)NC(=O)[C@H](CC(=O)O)NC(=O)CNC(=O)[C@H](CC(C)C)NC(=O)[C@@H](N)CC(C)C)C(=O)NCC(=O)N[C@@H](CCCCN)C(=O)N[C@@H](CCC(=O)O)C(=O)N[C@@H](Cc1ccccc1)C(=O)N[C@@H](CCCCN)C(=O)N[C@@H](CCCNC(=N)N)C(=O)N[C@H](C(=O)N[C@H](C(=O)N[C@@H](CCC(N)=O)C(=O)N[C@@H](CCCNC(=N)N)C(=O)N[C@H](C(=O)N[C@@H](CCCCN)C(=O)N[C@@H](CC(=O)O)C(=O)N[C@@H](Cc1ccccc1)C(=O)N[C@@H](CC(C)C)C(=O)N[C@@H](CCCNC(=N)N)C(=O)N[C@@H](CC(N)=O)C(=O)N[C@@H](CC(C)C)C(=O)N[C@H](C(=O)N1CCC[C@H]1C(=O)N[C@@H](CCCNC(=N)N)C(=O)N[C@H](C(=O)N[C@@H](CCC(=O)O)C(=O)N[C@@H](CO)C(=O)O)[C@@H](C)O)C(C)C)[C@@H](C)CC)C(C)C)[C@@H](C)CC,rat erythrocytes,,"concentration not given, 30 min, pH 7.4, 37 °C, added: Escherichia coli K-235 LPS, 1:5 w/w",,hemolysis,inhibited
COC(=O)[C@H](C)NP(=O)(OCCOCn1cnc2c(=O)[nH]c(N)nc21)Oc1cccc2ccccc12 (some centres unmarked),HEL,altered cell morphology,,,minimal cytotoxic concentration,> 50 µM
CC[C@@]12SS[C@]3(C(=O)N1C)[C@@H](O)C1(C45c6ccccc6N[C@@H]4N4C(=O)[C@]6([C@@H](C)O)SS[C@]4(C(=O)N6C)[C@H]5O)c4ccccc4N[C@@H]1N3C2=O (some centres unmarked),SF-268,"cell growth or viability, SRB",,,IC50,380 nM
CCCOC(=O)[C@H](C)NP(=O)(OCCOCn1cnc2c(=O)[nH]c(N)nc21)Oc1cccc2ccccc12 (some centres unmarked),HEL,altered cell morphology,,,minimal cytotoxic concentration,≥ 50 µM
CCc1cccc(C)c1N(C(=O)CCl)C(C)COC (centres unmarked),HEK293,neutral red uptake,24 h,,LD50,1.42 µg/mL
COc1cccc2c1C(=O)c1c(O)c3c(c(O)c1C2=O)C[C@@](O)(C(=O)CO)C[C@@H]3O[C@H]1C[C@H](N)[C@H](O)[C@H](C)O1,MCF7/ADR,flow cytometry,"10 µg/mL equivalent, 4 h loading, 4 h efflux, 37 °C",,drug efflux,84.9%
CC[C@H](C)[C@H](NC(=O)[C@H](C)NC(=O)[C@H](CCCCN)NC(=O)[C@H](CC(C)C)NC(=O)[C@H](C)NC(=O)[C@@H](NC(=O)[C@H](Cc1cnc[nH]1)NC(=O)[C@H](CC(C)C)NC(=O)[C@@H](NC(=O)[C@@H](NC(=O)[C@H](CCCCN)NC(=O)[C@H](CCCCN)NC(=O)[C@H](C)NC(=O)[C@H](CO)NC(=O)[C@H](CCCCN)NC(=O)[C@H](Cc1ccccc1)NC(=O)[C@@H](NC(=O)[C@H](CCCCN)NC(=O)[C@H](CC(C)C)NC(=O)[C@H](Cc1ccccc1)NC(=O)[C@H](CO)NC(=O)[C@H](CCCCN)NC(=O)[C@H](Cc1c[nH]c2ccccc12)NC(=O)[C@H](CCCCN)NC(C)=O)[C@@H](C)O)[C@@H](C)O)C(C)C)[C@@H](C)O)C(=O)N[C@@H](CO)C(=O)N[C@@H](CO)C(N)=O,human erythrocytes,,"1 h, 37 °C",,minimal haemolytic concentration,250 µg/mL
CCN(CC)N=O,HepaRG 2D,cell viability,"concentration not given, 24 h",baseline: vehicle,ATP level,73.3%
C#CC[C@H](NCc1ccccc1)C(=O)N[C@@H](Cc1c[nH]c2ccccc12)C(=O)NCc1ccc(-c2ccccc2)cc1,Vero,"cell morphology, microscopy",5 (unit not given),,minimum cytotoxic concentration,≥ 100 µM
CC(O)[C@@]12SS[C@]3(C(=O)N1C)[C@@H](O)[C@]1([C@@]45c6ccccc6N[C@@H]4N4C(=O)[C@]6(C)SS[C@]4(C(=O)N6C)[C@H]5O)c4ccccc4N[C@@H]1N3C2=O (some centres unmarked),SF-268,"cell growth or viability, SRB",,,IC50,370 nM
C=C(C[C@H](N)C(=O)O)C(N)=O,MCF7,,72 h,baseline: vehicle,concentration increasing cytotoxicity,320 µM
CC[C@H](C)[C@H](N)C(=O)N[C@@H](CC(C)C)C(=O)N1CCC[C@H]1C(=O)N[C@@H](Cc1c[nH]c2ccccc12)C(=O)N[C@@H](CCCCN)C(=O)N[C@@H](Cc1c[nH]c2ccccc12)C(=O)N1CCC[C@H]1C(=O)N[C@@H](Cc1c[nH]c2ccccc12)C(=O)N[C@@H](Cc1c[nH]c2ccccc12)C(=O)N1CCC[C@H]1C(=O)N[C@@H](Cc1c[nH]c2ccccc12)C(=O)N[C@@H](CCCN=C(N)N)C(=O)N[C@@H](CCCN=C(N)N)C(N)=O,human erythrocytes,,"15 µM, 1 h, pH 7.4",baseline: water lysis,haemolysis,23 ± 6%
CN(N=O)c1ccccc1,HepaRG 2D,cell viability,"concentration not given, 24 h",baseline: vehicle,ATP level,74.8%
CN1C(=O)[C@]23SS[C@@]1(C)C(=O)N2[C@H]1Nc2ccccc2[C@@]1([C@@]12c4ccccc4N[C@@H]1N1C(=O)[C@@]4(C)SS[C@]1(C(=O)N4C)[C@H]2O)[C@@H]3O,HT-29,"cell growth or viability, SRB",,,IC50,20 nM
CC(C)C[C@H](NC(=O)[C@H](C)NC(=O)CNC(=O)[C@@H](NC(=O)[C@@H](NC(=O)[C@H](CCCCN)NC(=O)[C@H](CCCCN)NC(=O)[C@@H](NC(=O)[C@H](CC(C)C)NC(=O)[C@H](CCCCN)NC(=O)[C@H](CC(C)C)NC(=O)[C@H](CC(C)C)NC(=O)[C@@H](N)CCCCN)C(C)C)C(C)C)C(C)C)C(=O)NCC(N)=O,human erythrocytes,,"1 h, 37 °C, hemolysis ≤5%",,minimal hemolytic concentration,> 250 µM
CC(C)(NP(=O)(OCCOCn1cnc2c(=O)[nH]c(N)nc21)Oc1cccc2ccccc12)C(=O)OCc1ccccc1 (centres unmarked),HEL,altered cell morphology,,,minimal cytotoxic concentration,> 50 µM
CN(C)N=O,HepaRG 2D,"micronucleus formation, flow cytometry",,,lowest effective concentration,7500 µM
CC[C@@]12SS[C@]3(C(=O)N1C)[C@@H](O)[C@]1(C45c6ccccc6N[C@@H]4N4C(=O)[C@@]6(CC)SS[C@@]4(C(=O)N6C)[C@H]5O)c4ccccc4N[C@@H]1N3C2=O (some centres unmarked),NCI-H460,"cell growth or viability, SRB",,,IC50,300 nM
O=NN1CCN(C2CCCC2)CC1,"HepaRG, 3D spheroids",,"highest tested concentration, 24 h, plus 5 days, added: hEGF 100 ng/mL",baseline: vehicle,γH2A.X fold increase,1.5 to 1.8 fold
C=C(C[C@H](N)C(=O)O)C(=O)NCc1ccc(F)cc1,MCF7,,24 h,baseline: vehicle,concentration increasing cytotoxicity,32 µM
